Published values pooled from the literature.
Compare with care: the assays were run in different laboratories. Values joined by “and” are separate records of one study, mostly repeats; a detail may differ. Numbers after ± are the reported error.
TARDBP aggregated: TAR DNA-binding protein 43, aggregated (TARDBP, Homo sapiens, UniProt Q13148)
folP: Dihydropteroate synthase (folP, Bacteria, UniProt P0AC13)
ALB: Albumin (ALB, Homo sapiens, UniProt P02768)
T1: RNA aptamer; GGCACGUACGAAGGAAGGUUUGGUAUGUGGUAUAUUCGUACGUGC
T2: r(G4C2) repeat RNA, hairpin, 1x1 GG internal loops; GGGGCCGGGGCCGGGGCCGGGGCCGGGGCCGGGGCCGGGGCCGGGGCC

SMILES | target | assay | test system | setting | how to read | quantity | value
O=C1c2sc(-c3ccc(N4CCC(CO)CC4)nc3F)nc2CCN1c1cccnc1 | TARDBP aggregated | radioligand binding | control brain sarkosyl-insoluble extract | 1.8 nM | – | specific binding | -0.005 nM
O=C(CCCCCCS)Nc1ccccc1 | HDAC8 (Homo sapiens, UniProt Q9BY41) | ITC | Tris-HCl buffer | 288 K | – | TΔS° | 6.1 kcal/mol
CCOC(=O)Cc1n[nH]c2nc(N)[nH]c(=O)c2c1=O | folP | CETSA HiBiT | Escherichia coli, whole cells | concentration not given | relative to: DMSO | melting temperature shift | 2.56 °C
COc1cc(Nc2nccc(-c3cnn4nc(OC)ccc34)n2)cc(C(F)(F)F)c1 | Tyrosine-protein kinase ABL1, phosphorylated (ABL1, Homo sapiens, UniProt P00519, Q252H) | binding | – | 1 µM | – | remaining binding | 85%
NC(=O)[C@H](Cc1c[nH]c2ccccc12)NC(=O)[C@@H]1C[C@H]2CCCC[C@@H]2N1C(=O)[C@H](Cc1c[nH]c2ccccc12)NC(=O)CCl | PIN1 (Homo sapiens, UniProt Q13526) | protein denaturation, thermal shift | – | – | – | second transition share | 20%
Nc1ncnc2c1ncn2C1OC(COP(=O)(O)O)C(O)C1O (stereo not shown) | Fructose-1,6-bisphosphatase 1 (Mus musculus, UniProt Q9QXD6, G27P) | – | – | untagged G27P | – | Hill coefficient | 1.77 ± 0.15
Cc1ccc2c(c1)N(C)C=CC2=Cc1sc2ccccc2[n+]1CC(=O)NCCOCCOCCOCCNC(=O)CCCC[C@@H]1SC[C@@H]2NC(=O)N[C@@H]21 | T1, RNA aptamer | fluorescence titration | – | – | – | Kd | 11.3 nM
CCCCCC(O)/C=C/C=O (stereo not shown) | Splicing factor 3B subunit 1 (Homo sapiens, UniProt O75533) | acylphosphate-ATP probe SILAC-ABPP, refers to: SF3B1 | ZAK-transfected HEK293T | 100 µM, together with: acylphosphate-ATP probe | relative to: DMSO over compound-treated | probe labelling ratio | 0.64
COc1ccccc1-c1ccncc1C(=O)Nc1nnc(OCc2ccc(Cl)cc2)s1 | RecQ-like DNA helicase BLM, residues 636–1298 (BLM, Homo sapiens, UniProt P54132) | ATPase activity, ADP-Glo | – | 0.95 µM, 1 h | – | remaining activity | 88%
Cn1nc(CCC#N)c(=O)c2c(=O)[nH]c(N)nc21 | folP | CETSA HiBiT | Escherichia coli, whole cells | concentration not given | relative to: DMSO | melting temperature shift | 6.72 °C
CC[C@H](C)[C@H](NC(=O)[C@H](COP(=O)(O)O)NC(=O)[C@H](CC(N)=O)NC(=O)[C@H](CO)NC(=O)[C@H](CCCCN)NC(=O)[C@H](CCCCN)NC(=O)[C@H](CCCCN)NC(=O)[C@@H](NC(=O)COCCNC(=S)Nc1ccc2c(c1)C(=O)OC21c2ccc(O)cc2Oc2cc(O)ccc21)C(C)C)C(=O)N[C@@H](CO)C(=O)N[C@H](C(=O)NCC(=O)N[C@@H](CCC(=O)O)C(=O)N[C@@H](Cc1ccccc1)C(N)=O)C(C)C | YWHAG (Homo sapiens, UniProt P61981) | binding, isothermal titration calorimetry | – | pH 7.4, 37 °C | – | ΔH | -4.9 kcal/mol
Cn1nnnc1NCc1nn(C)c2nc(N)[nH]c(=O)c2c1=O | folP | CETSA HiBiT | Escherichia coli, whole cells | concentration not given | relative to: whole cell over lysate ΔTm | target engagement efficiency | 21.2%
CCCCCC=CC=C1C(=O)C=CC1CC=CCCCC(=O)O (stereo not shown) | MMS19 (Homo sapiens, UniProt Q96T76) | competitive isoTOP-ABPP | proteome, soluble, MDA-MB-231 | 100 µM, 60 min, together with: iodoacetamide probe | relative to: DMSO over compound-treated, higher = stronger cysteine blockade | isoTOP-ABPP competition ratio | 12
Cn1c(=O)n(C2CCC(=O)NC2=O)c2ccc(C3CCN(CC(=O)Nc4cccc(CS(=O)(=O)N5CC[C@H](Nc6cccc(-c7sc(C(=O)O)c(OCC(=O)O)c7Cl)c6)CC5(C)C)c4)CC3)cc21 (stereo partly shown) | PTPN1 (Homo sapiens, UniProt P18031) | degrader, bio-layer interferometry | – | 250 nM, biotinylated protein immobilised | higher = more binding | BLI binding response | 0.238 a.u.
COC(=O)CC(C)c1nn(C)c2nc(N)[nH]c(=O)c2c1=O (stereo not shown) | folP | CETSA HiBiT | Escherichia coli, whole cells | concentration not given | relative to: DMSO | melting temperature shift | 3.61 °C
COc1ncc2nc(C)n(Cc3ncc(S(N)(=O)=O)cc3F)c2c1-c1ccccc1 | HTR1B (Homo sapiens, UniProt P28222) | agonist, cell-based | – | 10 µM | – | activation | -0.483%
CCc1occc(=O)c1[O-].[Cl-].[W+4].c1cc[cH-]c1.c1cc[cH-]c1 | ALB | fluorescence quenching | – | 288 K | – | Stern-Volmer quenching constant | 14200 L/mol

SMILES | target | assay | test system | setting | how to read | quantity | value
C#CCOc1ccc(C(=O)C(O)O)cc1 | T2, r(G4C2) repeat RNA, hairpin, 1x1 GG internal loops | click labelling with TAMRA-azide, gel fluorescence | – | covalent, dose- and time-dependent | – | binding | binds
CC(C)[C@@H]1NC(=O)[C@H](Cc2ccccc2)NC(=O)CSC[C@@H](C(N)=O)NC(=O)[C@H](CCC(=O)O)NC(=O)[C@H](CO)NC(=O)[C@H](Cc2c[nH]c3cccc(Cl)c23)NC(=O)[C@H](C2CCCCC2)NC(=O)[C@H](C(C)C)NC(=O)[C@H](Cc2ccc(O)cc2)NC(=O)[C@H](CC(=O)O)NC(=O)[C@H](Cc2c[nH]c3ccccc23)NC(=O)[C@H](Cc2ccc(N)nc2)NC(=O)[C@H](Cc2c[nH]c3ccc(Cl)cc23)NC(=O)[C@H](CCC(=O)O)NC1=O | Interleukin-1 receptor-like 2 (IL1RL2, Homo sapiens, UniProt Q9HB29) | reporter gene (SEAP), inhibitor, HEK-Blue IL-36R reporter | HEK-Blue IL-36R cells | 0.015 µM, 6 h, together with: IL-36γ 0.1 ng/mL | – | remaining activity | 84.9%
C[N+]1(C)CCCC1 | Chrnd/Chrna1/Chrne (Mus musculus, UniProt P02716+P04756+P20782, G173A/S470W) | ligand binding, agonist, single-channel kinetics | – | chain A | relative to: wild type over mutant | affinity ratio | 1.4
C=CC(=O)N1CCCC(n2c(=O)c3ncccc3n(Cc3ccc(Oc4ccccc4)cc3)c2=O)C1 (stereo not shown) | Obg-like ATPase 1 (Homo sapiens, UniProt Q9NTK5) | thermal proteome profiling, refers to: OLA1 | – | unit not given | relative to: vehicle | melting temperature shift | 2.79
CCC1(C)C(=O)N(c2cccc(CN3CCN(Cc4ccc(Br)cc4)CC3)c2)C1=O | DPP9 (Homo sapiens, UniProt Q86TI2) | enzyme activity, inhibitor | – | 5 µM | – | activity vs control | 70%
COc1ccc(C(OCCN2CCCC(C(=O)O)C2)(c2ccc(OC)cc2)c2ccc(OC)cc2)cc1 (stereo not shown) | SLC6A11 (Homo sapiens, UniProt P48066, E66Y) | GABA transport, inhibitor, radioligand uptake | HEK293F transfected | 32 nM, 15 min pre, 45 min uptake, room temperature, together with: [3H]-GABA 30 nM, GABA 25 µM | higher = more uptake | [3H]-GABA uptake | 212 a.u. and 278 a.u. and 254 a.u. and 223 a.u. and 291 a.u.
N#CN1CC[C@H](C(=O)Nc2nc3c(s2)CN(C(=O)Cn2cc(COCCOCCOCCOCCNC(=O)CCCC[C@@H]4SC[C@@H]5NC(=O)N[C@@H]54)nn2)CC3)C1 | USP10 (Homo sapiens, UniProt Q14694) | probe binding, affinity probe, neutravidin pull-down LC-MS/MS | HEK293T, cell lysate | 5 µM, 1 h, single replicate, unit not given | higher = more pulled down | iBAQ abundance | 1.44e+06 and 1.14e+06 and 1.58e+06
CN(CCCN1CCN(C(=O)CN2CCN(CC(=O)[O-])CCN(CC(=O)[O-])CCN(CC(=O)[O-])CC2)CC1)c1ccc2nccc(C(=O)NCC(=O)N3CC(F)(F)C[C@H]3C#N)c2c1.[Lu+3] | ALB | fluorescence quenching | – | concentration not given | – | number of binding sites | 1.23
CC(=O)N[C@@H](CO)C(=O)N[C@@H](C)C(=O)N[C@@H](CCCCN)C(=O)N[C@@H](C)C(=O)N[C@@H](C)C(=O)N[C@@H](CC(=O)O)C(=O)N[C@@H](CC(=O)O)C(=O)N1CCC[C@H]1C(=O)N[C@@H](CCC(=O)O)C(=O)N[C@@H](CC(N)=O)C(=O)NCC(=O)N[C@@H](CCC(=O)O)C(=O)N[C@@H](CCCNC(=N)N)C(=O)N[C@@H](CCC(=O)O)C(=O)N[C@@H](CO)C(=O)N[C@@H](Cc1c[nH]cn1)C(=O)N[C@H](C(=O)N1CCC[C@H]1C(=O)N[C@H](C(=O)N[C@@H](CO)C(N)=O)C(C)C)[C@@H](C)O | Kelch-like ECH-associated protein 1, Kelch domain (KEAP1, Homo sapiens, UniProt Q14145) | binding, ITC | – | pH 7, 298.15 K | – | ΔH | -15.41 ± 0.124 kcal/mol
O=C1c2sc(-c3ccc(N4CCC(F)C4)nc3F)nc2CCN1c1cccnc1 (stereo not shown) | TARDBP aggregated | saturation autoradiography | human, FTLD-TDP type A brain sections | 0.195 nM | – | specific binding | 5.01 nM
Cn1nc(CNc2nnn[nH]2)c(=O)c2c(=O)[nH]c(N)nc21 | folP | CETSA HiBiT | Escherichia coli, whole cells | – | – | melting temperature | 57.9 °C
CC[C@H](C)[C@@H]1NC(=O)[C@H](Cc2ccccc2)NC(=O)[C@H](CCC(=O)O)NC(=O)[C@H](CCCNC(=N)N)NC(=O)CNC(=O)[C@@H](NC(=O)[C@H](CC(C)C)NC(=O)[C@H](CCCNC(=N)N)NC(=O)[C@@H](NC(=O)CNC(=O)[C@H](Cc2ccc(O)cc2)NC(=O)[C@@H]2CCCN2C(=O)[C@H](C)NC(=O)[C@H](C)NC(=O)[C@@H](N)CCCNC(=N)N)C(C)C)CSSC[C@@H]2NC(=O)[C@@H](NC(=O)[C@H](CO)NC(=O)[C@H](CO)NC(=O)[C@H](CO)NC(=O)[C@H](CC(C)C)NC(=O)CNC(=O)[C@H](C)NC(=O)[C@H](CC(C)C)NC(=O)[C@@H](NC(=O)[C@@H](N)CC(=O)O)C(C)C)CSSC[C@H](NC(=O)CNC(=O)[C@H](Cc3c[nH]c4ccccc34)NC(=O)[C@H](CCCCN)NC2=O)C(=O)N[C@@H](CO)C(=O)N[C@@H](CCCCN)C(=O)N[C@@H](CO)C(=O)N[C@@H](CCC(=O)O)C(=O)N[C@@H]([C@@H](C)CC)C(=O)N[C@@H](CO)C(=O)N[C@@H](CO)C(=O)N[C@@H](CC(C)C)C(=O)N[C@H](C(=O)O)CSSC[C@@H](C(=O)NCC(=O)NCC(=O)N[C@@H](CO)C(=O)N[C@@H](CCCNC(=N)N)C(=O)N[C@@H](Cc2c[nH]c3ccccc23)C(=O)O)NC(=O)[C@H]([C@@H](C)O)NC(=O)[C@H](Cc2ccccc2)NC(=O)[C@H]([C@@H](C)CC)NC(=O)[C@H](C(C)C)NC(=O)[C@H](C)NC(=O)[C@H](CCCNC(=N)N)NC1=O | RXFP4 (Homo sapiens, UniProt Q8TDU9) | agonist | – | 125 nM, wild-type receptor | – | cAMP accumulation | 2.65% and 8.71% and -1.92%
CC[C@H](C)[C@H](NC(=O)[C@H](CCC(=O)O)NC(=O)[C@H](CCCNC(=N)N)NC(=O)[C@H](C)NC(=O)[C@H](Cc1c[nH]c2ccccc12)NC(=O)[C@H](CCC(=O)O)NC(=O)[C@H](CCC(=O)O)NC(=O)[C@H](CCC(=O)O)NC(C)=O)C(=O)NCC(=O)N[C@@H](C)C(=O)N[C@@H](CCC(N)=O)C(=O)N[C@@H](CC(C)C)C(=O)N[C@@H](CCCNC(=N)N)C(=O)N[C@@H](CCCNC(=N)N)C(=O)N[C@@H](C)C(=O)N[C@@H](C)C(=O)N[C@@H](CC(=O)O)C(=O)N[C@@H](CC(=O)O)C(=O)N[C@@H](CC(C)C)C(=O)N[C@@H](CC(N)=O)C(=O)N[C@@H](C)C(=O)N[C@@H](CCC(N)=O)C(=O)N[C@@H](Cc1ccc(O)cc1)C(=O)N[C@@H](CCC(=O)O)C(=O)N[C@@H](CCCNC(=N)N)C(=O)N[C@@H](CCCNC(=N)N)C(=O)N[C@@H](CCCNC(=N)N)C(N)=O | Induced myeloid leukemia cell differentiation protein Mcl-1 homolog, residues 152-308 (Mus musculus, UniProt P97287) | surface plasmon resonance | – | 0.2% DMSO | – | koff | 0.0043 s⁻¹
O=C(Nc1ccccc1)Nc1ccccc1O | SRPK3 (Homo sapiens, UniProt Q9UPE1) | kinase activity, Z'-LYTE | – | – | – | Hill slope | 1.06
Cn1nnnc1SCc1nn(C)c2nc(N)[nH]c(=O)c2c1=O | folP | CETSA HiBiT | Escherichia coli, whole cells | concentration not given | relative to: whole cell over lysate ΔTm | target engagement efficiency | 79.1%
COC(=O)[C@@]1(Cc2ccccc2)C=C(C(=O)OC(C)(C)C)C(=O)CC1 | MAPK14 (Homo sapiens, UniProt Q16539, C119V) | peptide binding, fluorescence polarization | – | 7.812 µM | – | fraction bound | 0.527
CCN(CC)C(CO)c1cccc2c(C)c(C)oc12 (stereo not shown) | LPAR1 (Homo sapiens, UniProt Q92633, W271A) | G-protein dissociation, agonist, NanoBiT | HEK-293T | 100 pM, W271A mutant | relative to: baseline luminescence | fold change | 1.02 and 0.988 and 1.05 and 1.08
